Published values from different studies.
Parts stem from different laboratories: compare values within a part only. Substitutions count along the parent as printed. pIC50: −log10 of the molar value.

Set 1
Target: CCND2, cyclin fold, Cln2 fusion (human)
Technique: yeast growth competition, sequencing
Sample: yeast
Notes: weak parent motif
Relative to: not given
Direction: higher = stronger binding
Starting sequence: viral docking peptide; TSVRRALFTGGSD
Substitution | normalised enrichment score
TSVRRAFFTGGSD [L7F] | -0.091
TSVRRALFCGGSD [T9C] | 0.17
TSARRALFTGGSD [V3A] | 0.262
TSFRRALFTGGSD [V3F] | -0.259
TSVRRALATGGSD [F8A] | 0.0308
TSVRRALFTGGFD [S12F] | -0.172
TMVRRALFTGGSD [S2M] | 0.272
TSMRRALFTGGSD [V3M] | -0.211

Set 2
Target: UDP-N-acetylglucosamine--peptide N-acetylglucosaminyltransferase 110 kDa subunit (OGT, Homo sapiens, UniProt O15294)
Sequence of UniProt O15294 (whole entry, looked up): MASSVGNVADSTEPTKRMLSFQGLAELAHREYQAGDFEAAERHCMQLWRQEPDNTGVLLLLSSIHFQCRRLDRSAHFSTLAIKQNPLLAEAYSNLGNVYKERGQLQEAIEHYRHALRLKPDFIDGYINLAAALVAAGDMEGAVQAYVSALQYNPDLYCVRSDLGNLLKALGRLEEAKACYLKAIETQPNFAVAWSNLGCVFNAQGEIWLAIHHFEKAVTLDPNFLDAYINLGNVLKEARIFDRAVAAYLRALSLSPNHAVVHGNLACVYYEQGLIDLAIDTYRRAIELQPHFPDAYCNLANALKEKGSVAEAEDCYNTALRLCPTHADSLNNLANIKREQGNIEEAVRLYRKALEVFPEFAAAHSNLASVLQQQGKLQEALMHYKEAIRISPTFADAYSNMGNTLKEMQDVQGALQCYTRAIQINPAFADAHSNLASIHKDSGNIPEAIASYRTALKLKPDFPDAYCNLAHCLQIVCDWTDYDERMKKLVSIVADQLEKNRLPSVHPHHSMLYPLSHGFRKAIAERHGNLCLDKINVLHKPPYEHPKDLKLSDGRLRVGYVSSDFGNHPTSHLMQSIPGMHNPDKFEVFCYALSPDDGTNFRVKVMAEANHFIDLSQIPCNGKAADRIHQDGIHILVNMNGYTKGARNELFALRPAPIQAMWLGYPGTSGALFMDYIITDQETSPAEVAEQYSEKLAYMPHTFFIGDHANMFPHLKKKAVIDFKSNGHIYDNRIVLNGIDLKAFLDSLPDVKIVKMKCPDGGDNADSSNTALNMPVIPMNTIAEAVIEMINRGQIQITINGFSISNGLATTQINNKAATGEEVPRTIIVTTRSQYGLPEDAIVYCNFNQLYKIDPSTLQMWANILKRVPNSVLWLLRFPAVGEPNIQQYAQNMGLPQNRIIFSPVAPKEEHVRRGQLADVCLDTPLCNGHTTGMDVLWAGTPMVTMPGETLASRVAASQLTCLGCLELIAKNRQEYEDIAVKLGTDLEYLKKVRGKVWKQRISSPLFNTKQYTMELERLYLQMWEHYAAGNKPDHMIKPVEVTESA
Read-out: binding
Technique: phage display NGS
Form: peptide
Tested at: concentration not given
Notes: panning round 2
Relative to: input library
Sequence | enrichment fold change
LTPFHTHHGHVTRG | 4.18
HQYDIHHHTYTVRVH | 5.14
HADHKSPLFNHNTQH | 4.54
HAQHTVQGNHQHVAH | 20.8
YETMDVFMPQYKIIA | 9.17
DHAHRHWYAMRNHHT | 6.03
HTQPMEHNFHHYHF | 5.5
WPMDFPMFTHHHFH | 7.22

Set 3
Target: tungstate, free oxyanion
Technique: microfluidic competitive inhibition
Sample: in vitro, cell-free expressed
Tested at: not given
Notes: derived from inhibition constants, unchanged parent 2230 nM
Direction: lower = stronger binding
Starting sequence: PafA, mature enzyme, eGFP fusion (Elizabethkingia meningoseptica, UniProt Q9KJX5); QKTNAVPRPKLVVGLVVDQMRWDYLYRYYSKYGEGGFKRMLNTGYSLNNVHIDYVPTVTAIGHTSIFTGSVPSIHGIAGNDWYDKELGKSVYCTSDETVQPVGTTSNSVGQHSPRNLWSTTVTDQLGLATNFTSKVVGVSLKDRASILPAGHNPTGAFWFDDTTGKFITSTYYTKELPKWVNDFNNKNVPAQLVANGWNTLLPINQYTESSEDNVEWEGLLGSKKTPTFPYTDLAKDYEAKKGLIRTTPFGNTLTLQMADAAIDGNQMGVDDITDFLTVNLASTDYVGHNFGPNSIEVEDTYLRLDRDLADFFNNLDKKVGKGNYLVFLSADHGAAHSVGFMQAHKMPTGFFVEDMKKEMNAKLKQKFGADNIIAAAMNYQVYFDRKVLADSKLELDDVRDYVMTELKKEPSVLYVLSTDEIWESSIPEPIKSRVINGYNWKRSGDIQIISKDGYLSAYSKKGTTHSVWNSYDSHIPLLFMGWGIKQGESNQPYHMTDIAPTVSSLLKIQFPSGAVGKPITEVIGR
Substitution | oxyanion analog dissociation constant [µM]
D355G | 1.78
S504V | 1.93
E299G | 2.13
F160G | 1.92
L41G | 1.87
G76A | 2.08
G110A | 2.52
L117G | 1.75

Single results of other studies
SMILES | target | assay | measurement | result
COC(=O)c1cc(N(C)C(=O)c2ccn3ncc(-c4ccc(C(=O)O)cc4)c3c2)ccc1Cl | Mitogen-activated protein kinase 1 (MAPK1, Homo sapiens, UniProt P28482) | enzyme activity, inhibitor | pIC50 | < 4.52

For quick reference, copied from above (set 3):
Substitution | oxyanion analog dissociation constant [µM]
L41G | 1.87
G76A | 2.08
